Measured values from different studies.
Numbered parts are unrelated; each lists some results of a single study. Changes are numbered by the printed parent chain.

Series 1
Target: CCNF, cyclin fold, Cln2 fusion (human)
Technique: yeast growth competition, sequencing
Medium: yeast
Setting: strong parent motif
Reference: not given
Reading: higher = stronger binding
Starting sequence: SAMHD1 docking peptide (human); ASKSRVQLFKDDP; partner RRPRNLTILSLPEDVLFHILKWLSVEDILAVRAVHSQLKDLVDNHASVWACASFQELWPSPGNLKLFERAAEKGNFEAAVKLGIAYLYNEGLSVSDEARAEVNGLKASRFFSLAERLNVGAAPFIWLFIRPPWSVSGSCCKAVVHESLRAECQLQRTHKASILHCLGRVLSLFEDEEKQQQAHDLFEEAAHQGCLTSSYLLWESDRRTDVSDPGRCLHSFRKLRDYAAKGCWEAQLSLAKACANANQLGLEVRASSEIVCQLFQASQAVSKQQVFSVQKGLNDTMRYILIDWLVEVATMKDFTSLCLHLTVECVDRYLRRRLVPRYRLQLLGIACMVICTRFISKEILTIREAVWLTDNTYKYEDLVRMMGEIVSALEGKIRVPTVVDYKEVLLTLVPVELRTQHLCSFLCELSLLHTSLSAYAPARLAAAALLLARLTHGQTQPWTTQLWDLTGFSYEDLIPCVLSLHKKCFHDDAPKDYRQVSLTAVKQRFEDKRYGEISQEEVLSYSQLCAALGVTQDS
For `L8H`, “normalised enrichment score” read -0.123.
Under “normalised enrichment score”, `D11L` is recorded as 0.578.
Under “normalised enrichment score”, `R5W` is recorded as 0.592.
`D11M` — result for “normalised enrichment score”: 0.869.
`V6R` — result for “normalised enrichment score”: 6.65.
`D11S` — result for “normalised enrichment score”: 1.47.

Series 2
Target: RNA binding protein fox-1 homolog 2, RRM domain, GST-SBP tag (RBFOX2, Homo sapiens, UniProt O43251-10, residues 100-194)
Technique: RNA Bind-n-Seq
Molecule type: RNA
Medium: in vitro
Concentration: 365 nM
Setting: natural RNA segment, single round, ends assumed
Reference: no-protein control
Reading: higher = stronger binding
Constant ends, left off below: GGGAGUUCUACAGUCCGACGAUC … UGGAAUUCUCGGGUGCCAA
Target sequence (chain): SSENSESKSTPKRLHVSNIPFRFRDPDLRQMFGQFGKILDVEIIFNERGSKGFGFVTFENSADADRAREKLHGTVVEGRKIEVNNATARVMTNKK
For `UUCUUUGCCUUUCAAAACAAAAGCAAAACACAGUGAACUUCACCACGGAGCUGCACAGCGUGGGGAACUCAUCCAUCACUUUCAAAAUUAGAGUCAUUUGAUCCAAGUUG`, “RBNS enrichment (R)” read 0.576.
`ACUUAAUACUAGGAGAAGACUGAAUCAUUAAUGAUGUCUCACAAAUUACUGUGUACCUAAGUGGUGUGAUGUAAAUACUGGAAACAAAAACAGCAGUUGCAUUGAUUUUG` — result for “RBNS enrichment (R)”: 0.335.
`AAAUCAGGCAAAAUUUGUUCCUGAAGUUGCUUUUUACCCCAGCAGACAUAAACUGCGAUAGCUUCAGCUUGCACUGUGGAUUUUCUGUAUAGAAUAUAUAAAACAUAACU`: “RBNS enrichment (R)” 0.529.
Under “RBNS enrichment (R)”, `CCUGCCCAGACUUUCUAUCCAGCCUCACUGAGCUGCCCACUACUGGAAGGGAACUGGGCCUCGGUGGCCGGGGCCGCGAGCUGUGACCACAGCACCCUCAAGCAUACGGC` is recorded as 0.642.
Under “RBNS enrichment (R)”, `AAUGCCCACCCCUACUGUGGCCACAUCAUGCCCAGUGUCCCCCCAGGUAGGAGCAGAUACAGUGCAGACCAGGCCCCUCAGUCCUCAUGGUCAAGUCCUUUUGUUGCUCU` is recorded as 0.293.
Under “RBNS enrichment (R)”, `UACCCUUGGAUCAGCCAAGCCAGACUUGGAGCUUUGACAAGGAACGUUCCCGGGAAACGACCAAACGAACCGAACACAUAUAAACAAGGCACAGAGAAGUGGCCACAGCC` is recorded as 0.372.

Series 3
Target: Interferon regulatory factor 7, full length, phosphomimetic (IRF7, Homo sapiens, UniProt Q92985, residues 1-503, S471D/S472D/S475D/S476D/S477D/S483D/S484D/S487D)
Chain of UniProt Q92985 (whole entry, unmodified, looked up): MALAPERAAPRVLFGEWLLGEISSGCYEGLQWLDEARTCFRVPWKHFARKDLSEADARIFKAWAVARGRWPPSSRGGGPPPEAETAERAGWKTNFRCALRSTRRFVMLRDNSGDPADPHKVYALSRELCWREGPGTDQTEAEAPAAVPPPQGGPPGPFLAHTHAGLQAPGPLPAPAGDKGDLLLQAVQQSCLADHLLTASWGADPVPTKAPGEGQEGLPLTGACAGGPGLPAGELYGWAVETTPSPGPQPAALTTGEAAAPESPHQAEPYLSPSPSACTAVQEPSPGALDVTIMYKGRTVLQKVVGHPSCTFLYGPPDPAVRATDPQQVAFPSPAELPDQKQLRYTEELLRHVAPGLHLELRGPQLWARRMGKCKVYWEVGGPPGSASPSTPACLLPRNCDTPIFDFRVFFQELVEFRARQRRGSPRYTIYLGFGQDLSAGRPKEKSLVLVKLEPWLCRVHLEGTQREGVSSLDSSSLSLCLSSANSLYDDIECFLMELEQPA
Technique: protein-binding microarray
Molecule type: double-stranded DNA, one strand shown
Medium: in vitro
Concentration: 2200 nM top
Setting: 60-bp whole probe
With: salmon DNA 0.4 mg/ml
Reference: random background probes
Reading: higher = stronger binding
Constant ends, left off below: GCCTAGCAC … GTCTTGATTCGCTTGACGCTGCTG
`TTAAGTCTCGGACTGGGTTAGTGCTAG` — result for “fitted relative affinity”: -0.225 z-score.
For `TTAGGTTTCCTTATCGTTTAGTGCTAG`, “fitted relative affinity” read 1.85 z-score.
For `TTAGGAGTGGGGTTTCGGTTAGTGCTA`, “fitted relative affinity” read 2.97 z-score.
`TCACTCACCTAGTTTCATACTGTGCTA`: “fitted relative affinity” 2.59 z-score.
For `GATGGACTGCTTTTCCTGACGTGCTAG`, “fitted relative affinity” read 0.709 z-score.
For `TTAGATCACAGTTTCGATTAGTGCTAG`, “fitted relative affinity” read 4.9 z-score.

Single results of other studies
The fold induction of `PhoQ, residues 284 288 289 292 302 303 AANNSF` is reported as 6.57 (PhoP, residues 12 14 15 18 19 NQGLL (Escherichia coli, UniProt P23836); Sort-seq, refers to: YFP reporter; E. coli; PhoQ-PhoP variant library, with: 10 µM Mg2+; reference: high Mg2+ state, higher = stronger signaling).
